Measurements gathered from unrelated publications.
Each numbered part is a random draw from the data of one study; scales do not carry over between parts.

Sample 1
Target: Interferon regulatory factor 3, full length, phosphomimetic (IRF3, Homo sapiens, UniProt Q14653, residues 1-427, S386D/S396D/S398D/S402D/T404D/S405D)
Technique: protein-binding microarray
Molecule type: double-stranded DNA, one strand shown
Medium: in vitro
Concentration: 2540 nM top
Notes: 60-bp whole probe
Added: salmon DNA 0.4 mg/ml
Reference: random background probes
Direction: higher = stronger binding
Shared flanks, not repeated: GCCTAGCAC … GTCTTGATTCGCTTGACGCTGCTG
Residues (chain): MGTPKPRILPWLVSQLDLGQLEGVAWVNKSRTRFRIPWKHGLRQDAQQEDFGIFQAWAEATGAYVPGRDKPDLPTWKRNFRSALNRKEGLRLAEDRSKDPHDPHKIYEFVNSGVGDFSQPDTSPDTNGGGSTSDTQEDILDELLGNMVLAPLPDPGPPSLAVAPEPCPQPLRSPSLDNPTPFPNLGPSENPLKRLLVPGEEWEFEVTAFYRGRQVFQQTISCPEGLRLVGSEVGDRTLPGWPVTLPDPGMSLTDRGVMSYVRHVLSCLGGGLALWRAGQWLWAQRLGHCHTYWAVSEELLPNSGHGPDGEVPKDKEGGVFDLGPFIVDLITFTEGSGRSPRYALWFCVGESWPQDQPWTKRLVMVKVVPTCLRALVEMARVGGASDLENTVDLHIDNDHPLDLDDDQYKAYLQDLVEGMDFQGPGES
| Oligonucleotide | fitted relative affinity [z-score] |
| --- | --- |
| TCAGGACTGGGTCTCGGTTAGTGCTAG | -0.555 |
| AAATCTAAAAAGTCTCTGGGAGTGCTA | -0.108 |
| TTTGATCTCAGTTTCGATTAGTGCTAG | 3.72 |
| GACAGTTTCCTTTTCCTGACGTGCTAG | 10.6 |
| GACGGACTGGGTATCGTGACGTGCTAG | -0.523 |
| TTAGATATCGGGTATCGATTTGTGCTA | 0.839 |
| TTTTTTTTCCTAATTGAACCGTGCTAG | 3.64 |
| TTAGGTTTCCTTTTCCTGTAGTGCTAG | 11.1 |
| GACGAACTGGGGACTGGAAACGTGCTA | -0.343 |
| GACGGTCTCGTTATCCTGACGTGCTAG | 1.12 |
| GACTGACTGGGACTGGGGACGTGCTAG | -0.699 |
| GACGATATCAGTTTCGAGAGGTGCTAG | 2.78 |
| TTAGGACTGGACACGGGGTTAGTGCTA | -0.835 |
| TCAAGTTTCTCTTTCCTACTGTGCTAG | 6.19 |
| TTAGGTTGCGGTCTCGGTTAGTGCTAG | 4.47 |
| GACAGTATCGGGTTTCGGGACGTGCTA | 3.15 |
| TAAGGTATAAACTTGGGAAAGTGCTAG | -0.363 |
| GACGGACTGGGGTATAGGGACGTGCTA | -0.725 |
| TCACATTTTAGTTTTCAACTGTGCTAG | 2.16 |
| TCAAGAGTAGTTTTTCAAACTGTGCTA | 0.156 |

Sample 2
Target: Sal-like protein 4, full length isoform B (SALL4, Homo sapiens, UniProt Q9UJQ4-2, residues 1-616)
Technique: universal PBM
Molecule type: double-stranded DNA, one strand shown
Medium: in vitro
Concentration: not given
Notes: 8-mer, flanks averaged, mean of replicates
Direction: higher = stronger binding
| Oligonucleotide | E-score |
| --- | --- |
| ACCGAGGC | -0.313 |
| ACTGGATG | -0.117 |
| ATTCTGCA | 0.144 |
| GAAGGTGC | -0.234 |
| GAGTACTC | -0.0977 |
| CAAATAGA | 0.111 |
| AGCCTGAC | -0.206 |
| CACAACTC | 0.0574 |
| AGGGTGGG | -0.119 |
| AACCGGGG | -0.42 |
| AGACTAAA | 0.0853 |
| AGGTCTAC | -0.103 |
| CAGTCAAA | -0.0397 |
| CATCCCCC | -0.313 |
| ACGTGAAA | 0.247 |
| CATCTCGG | -0.00974 |
| CACGGCGC | -0.186 |
| ATGGCAGG | -0.101 |
| TCTGAGCA | -0.0431 |
| GTAAAGCA | 0.111 |
| CGCTAAAA | 0.0105 |
| CAGCAAAG | -0.0942 |
| AACGTTAG | 0.169 |
| CTTGATAC | 0.132 |
| CTTCAACC | -0.0223 |

Sample 3
Target: RING finger protein unkempt homolog, zinc fingers 1-6, GST-SBP tag (UNK, Homo sapiens, UniProt Q9C0B0, residues 30-357)
Technique: RNA Bind-n-Seq
Molecule type: RNA
Medium: in vitro
Concentration: not given
Notes: RNA with constant flanks, human and mouse sites, ends assumed
Reference: input RNA pool
Direction: higher = stronger binding
Target sequence (chain): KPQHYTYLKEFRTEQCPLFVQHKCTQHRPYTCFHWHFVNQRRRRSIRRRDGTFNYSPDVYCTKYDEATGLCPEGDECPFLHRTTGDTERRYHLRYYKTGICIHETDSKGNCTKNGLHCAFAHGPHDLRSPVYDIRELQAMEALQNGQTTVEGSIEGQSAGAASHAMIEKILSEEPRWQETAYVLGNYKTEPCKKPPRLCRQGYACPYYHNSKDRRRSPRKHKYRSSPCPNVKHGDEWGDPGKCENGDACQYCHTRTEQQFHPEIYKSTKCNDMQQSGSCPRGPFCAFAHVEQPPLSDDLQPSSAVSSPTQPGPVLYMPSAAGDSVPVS
| Oligonucleotide | bound/input enrichment |
| --- | --- |
| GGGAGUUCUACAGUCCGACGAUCUUAGUAUCCAAUUUCGAUCAGCAGCAGCUCGCUAAUUUCUGCCGGAUUCUGGCUGUCACCAUUUCAGAGAUGGAUACAGGGAAUGAUGACAAGCACACGCUUCUUGCCAAAAAUGCUCAACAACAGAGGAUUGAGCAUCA | 0.222 ratio |
| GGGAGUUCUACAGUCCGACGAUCGAACAUGUCGACAAGCUGAAAAUCCCCCCUGAAGAGAUGAAGGAAAUGGAGCAGAAGUUGAUUAGAGACUUCCAAGAGUACGUGGAGCCAGGAGAAGACUUCCCAGCCUCCCCUCAGCGACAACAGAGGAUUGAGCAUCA | 0.248 ratio |
| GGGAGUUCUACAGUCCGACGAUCGUGUCGAGAGUCCCCUUCACGGAAGAGCAGCUCUUCAGCAUUUUUGACAUCGUCCCAGGCCUGGAGUAUUGUGAGGUUCCGCGAGAUCCUUAUUCAAAUUACGGUCAUGGUGUGGUUCAGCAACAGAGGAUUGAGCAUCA | 0.15 ratio |
| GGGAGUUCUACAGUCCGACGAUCCCGCACCUCCUCCACCACCGCCUCCCGCUCCCUGACGACAGGGAAGAUGGAGAGUUGGAAGAAGGUGAAUUGGAAGAUGAUGGGGCAGAGGAGACCCAGGAUACCUCCGGAGGGCCUGAGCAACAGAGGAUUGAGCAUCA | 0.111 ratio |
| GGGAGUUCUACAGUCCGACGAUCCUCCAAGAAAAACAGCAACAACUUCUUAAUGUACAAGAAGAGAUGAGUGAGAUGCAGAAAAAGAUUAAUGAAAUAGAGAAUUUAAAGAAUGAAUUAAAGAACAAAGAAUUGACAUUGGAACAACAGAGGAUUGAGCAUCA | 7.8 ratio |
| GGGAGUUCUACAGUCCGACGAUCCUGGUUGUGGUGGCGCACGCCAGUAGGAUUUGCUGAAGGAGGCAGAAGCAGGAGGAUCGCGAGUUCGAGGCCAGCCUGGUCUACACAUUUUAAACCCGGGCGUGGUGGCGCACGCCUAUACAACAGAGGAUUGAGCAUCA | 0.275 ratio |
| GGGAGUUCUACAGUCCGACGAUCCAAGUAAAAGAAGAACAGCUUAAAAAUUCUACAGAGGAAAUAAUGCCAUCAGACAAACAGUUAAUUAAAAUGGAAAAGAAGGAAGAAGAAGAAAACGGAGAAAGACCUAGAAAGAAAAAGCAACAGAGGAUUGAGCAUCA | 0.849 ratio |
| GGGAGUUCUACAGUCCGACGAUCUUUCACAUGAAAGAAGUGGUGGCUGCUAAAAAAAAAGCUACAGUGUUUAUUAAGGGUCUUUUUGAUUUAUGUAAAUAUUUGUAAAUUGGUCAGUGCCUGUAAAUUUAAAUAUAAAAAGUACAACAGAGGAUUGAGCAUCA | 0.419 ratio |
| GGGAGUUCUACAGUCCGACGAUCUUGCUCUCUAUUUGUUCCCUUUUGACAGAUUGCAACCCUGCGGAUCCUCUGGUCGGAAGCAUAGCCACUCAGUAUUUGACCAACAGAGCAGAACAUGACAGGAUAGCCAGACAGUGGACCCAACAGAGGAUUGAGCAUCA | 0.318 ratio |
| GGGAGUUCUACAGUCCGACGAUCGGGAGCGCCAUCAGAACCCAGGGAAUCUUUCUGAAGCCACACUCAUCUGACACACGUACACUUAGACCUGUCUCUUCUUUUGCUUUUCAAUUUUGGAAAGGGAUCUCUGUCCAGGUCAGCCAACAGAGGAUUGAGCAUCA | 0.293 ratio |
| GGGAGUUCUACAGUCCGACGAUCACGAGCUGAUGGAUUGACGUGCGGGCUGCUUAGCCCAGACCGCCGCCCUCGCGCUCGCGCCUUAGACUGGAAUUGGCUGUCUCGGGGCUCUGGCCGCCGGCCUCUCCUCCGCGUUUUCCUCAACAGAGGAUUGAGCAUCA | 0.0517 ratio |

Sample 4
Target: Histone acetyltransferase KAT6A, winged helix 1, GST fusion (KAT6A, Homo sapiens, UniProt Q92794, residues 1-85)
Technique: protein binding microarray
Molecule type: double-stranded DNA, one strand shown
Medium: in vitro
Concentration: not given
Notes: 8-mer, flanks averaged, mean of 2 arrays, mostly near background
Reference: not given
Direction: higher = stronger binding
Target sequence (chain): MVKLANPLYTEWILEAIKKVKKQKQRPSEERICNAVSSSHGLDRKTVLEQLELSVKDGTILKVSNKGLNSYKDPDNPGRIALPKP
| Oligonucleotide | E-score |
| --- | --- |
| GTAGACGA | -0.142 |
| AACGGGCT | 0.211 |
| AGGGGAAA | -0.153 |
| AAATACTG | -0.173 |
| TCATGGCA | -0.0621 |
| CCACAGGC | -0.09 |
| CGGACGAA | 0.18 |
| ATCCTTAA | -0.247 |
| AAGGACCG | 0.0828 |
| GTGTTAGA | -0.105 |
| GGGCGCGA | 0.293 |
| CAGGGGGC | 0.14 |
| GTTTGACA | -0.116 |
| ACGCGAGT | 0.185 |
| GTAAGAAA | -0.118 |
| AAGCTGCC | -0.0364 |
| TCCGGCAA | 0.0372 |
| GAGATTCC | -0.055 |
| ATTGGGTG | -0.15 |
| CCCTCAGC | 0.0205 |
| AAATATCG | -0.0722 |
| ATAATGAT | -0.115 |
| CTCGTTGA | -0.135 |
| CAGGTAAA | -0.0688 |
| AATTAACT | -0.152 |

Some of these lines once more (sample 2):
| Oligonucleotide | E-score |
| --- | --- |
| ACGTGAAA | 0.247 |
| CATCCCCC | -0.313 |
| ATGGCAGG | -0.101 |
| CTTGATAC | 0.132 |
| ACCGAGGC | -0.313 |
| AGACTAAA | 0.0853 |
| CACAACTC | 0.0574 |
| AGGTCTAC | -0.103 |
| AGGGTGGG | -0.119 |
| ACTGGATG | -0.117 |
| GAGTACTC | -0.0977 |
| AGCCTGAC | -0.206 |
